# Results gathered from unrelated publications.
# Values joined by “and” are separate records of one study, mostly repeats; a detail may differ. ± gives the spread as reported.
# Cell line: A549
SMILES,effect on,mode,method,time,temperature,setting,IC50
CCCCCC(=O)Oc1c(C)c(OC)c2c(c1C)OC(=O)[C@@H](CCCC)[C@]2(O)/C=C/c1ccccc1 (relative stereo),cell growth or viability,,SRB,72 h,,,> 50 µM
CNS(=O)(=O)Nc1nccc(Cc2c(C)c3ccc(Oc4ncccc4F)cc3oc2=O)c1F,cell viability,,,7 days,,,0.736 µM
CCCCCCCCCC(=O)[O][Pt]([Cl])([Cl])[O]C(=O)CCCCCCCCC.N.N,cell growth or viability,,MTT,,,,1.14 µM
COC(=O)[C@@H](NC(=O)[C@@H](NC(=O)OC(C)(C)C)C(C)C)C(C)C,cell growth or viability,,SRB,,,,0.67 µM and 1.49 µM and 0.76 µM
CCOC(=O)/C=C1\S/C(=N\N=C\c2cccc3cc4ccccc4nc23)N(C)C1=O,cell growth or viability,,MTT,48 h,,,> 50 µM
CCCc1cc2cc(-n3nc(C(F)F)c4c3CC(C)(C)CC4=O)cc(N3CCC(O)CC3)c2c(=O)[nH]1,cell growth or viability,,MTS,,,,6.07 µM
CC(C)=CC1OC(C)(C)C2C=C3C(=O)C(Cl)=CC(O)C3C3C(O)C4OC4C(=O)C132 (stereo not drawn),cell growth or viability,,MTS,,,,3.66 µM
C=CCOCO[C@H](C(=O)NC[C@@H]1C[C@@H](OC)C(C)(C)[C@@H](C[C@@H](COC)OC)O1)[C@@]1(OC)CC(=C)[C@@H](C)[C@@H](C)O1,cell viability,,sulforhodamine B,72 h,37 °C,without H2O2,2.65 ± 1.14 µM
O=C(NCCOCCOCCNC(=O)c1cc2ccccc2c2ccccc12)c1cc(C(=O)N2CCNCCNCCNCC2)c(O)c(C(=O)N2CCNCCNCCNCC2)c1,cell growth or viability,,MTT,24 h,,,> 1000 µM
CC(=O)[O][Pt]([NH2])([NH2])([Cl])([Cl])[O]C(=O)CCC(C)C1CCC2C3CCC4CC(O)CCC4(C)C3CCC12C (stereo not drawn),cell growth or viability,,MTT,,,,4.1 µM
CCCC(=O)[O][Pt]([Cl])([Cl])[O]C(=O)CCC.N.N,cell growth or viability,,MTT,,,,4.16 µM
Cc1nc(Nc2ccc3c(c2)/C(=C/c2c[nH]c4ccccc24)C(=O)N3)c2ccccc2n1,cell growth or viability,,MTT,,,,0.95 µM
Cc1ccc([N+](=O)[O-])cc1S(=O)(=O)N(C)/N=C/c1cnc2ccc(Br)cn12,cell growth or viability,,,,,,2.66 µM
CCCCCCCCCCCC(=O)Oc1c(C)c(OC)c2c(c1C)OC(=O)[C@@H](CCCCCCCCCC)[C@]2(O)/C=C/c1ccccc1 (relative stereo),cell growth or viability,,SRB,72 h,,,> 50 µM
NC1=C(Cl)C(=O)c2cccc([N+](=O)[O-])c2C1=O,cell growth or viability,,MTT,,,,41.9 µM
CCCC(=O)Oc1c(C)c(OC)c2c(c1C)OC(=O)[C@@H](CC)[C@]2(O)/C=C/c1ccccc1 (racemic),cell growth or viability,,SRB,72 h,,,> 50 µM
Cn1ncc(-c2ccc3c(=O)[nH]nc(CN)c3c2)c1-c1c(F)c(Cl)cc(OC2CC2)c1C#N,cell viability,inhibitor,CellTiter-Glo,120 h,,baseline-subtracted,0.03 µM
CCOC(=O)/C=C1\S/C(=N\N=C\c2cccc3cc4ccccc4nc23)N(c2ccc([N+](=O)[O-])cc2)C1=O,cell growth or viability,,MTT,48 h,,,> 50 µM
COc1ccccc1/C=C1\C(=O)Nc2ccc(Nc3nc(C)nc4ccccc34)cc21,cell growth or viability,,MTT,,,,2.27 µM
CCOC(=O)/C=C1\S/C(=N\N=C\c2cccc3cc4ccccc4nc23)N(c2ccccc2)C1=O,cell growth or viability,,MTT,48 h,,,> 50 µM
CCCC[N+]1=c2cc3c4cc2[O][Mn-2]1(=[C]=O)(=[C]=O)(=[C]=O)[n+]1ccc(cc1)C(=O)OCCOCCOC(=O)c1cc[n+](cc1)[Mn-2](=[C]=O)(=[C]=O)(=[C]=O)([O]3)[N+]=4CCCC,cell growth,,MTT,48 h,,LED light photolysis 1 h,6.87 ± 0.42 µM
Cc1ccc(C(C)C)cc1.Cc1ccc(C(C)C)cc1.Cc1ccc(C(C)C)cc1.Cc1ccc(C(C)C)cc1.O=S(=O)(O)C(F)(F)F.O=S(=O)(O)C(F)(F)F.O=S(=O)(O)C(F)(F)F.O=S(=O)(O)C(F)(F)F.c1ccc2c3c4ccccc4c(c2c1)-c1cn(nn1)-c1cc[n+](cc1)[Ru-]1[O]C2=[O+][Ru-]([O]C2=[O+]1)[n+]1ccc(cc1)-n1cc(nn1)-c1c2ccccc2c(c2ccccc12)-c1cn(nn1)-c1cc[n+](cc1)[Ru-]1[O]C2=[O+][Ru-]([O]C2=[O+]1)[n+]1ccc(cc1)-n1cc-3nn1,cell growth or viability,,MTT,24 h,,,> 20 µM
CC(C)[C@@H]1NC(=O)[C@@H](CCCNC(=N)N)NC(=O)[C@H]([C@@H](C)O)NC(=O)[C@@H](CCCN)NC(=O)[C@H](Cc2ccc(F)c(F)c2)NC(=O)[C@@H](Cc2ccccc2)NC1=O,cell growth or viability,,ATP luminescence,,,,> 100 µM
CCCc1cc2cc(-n3nc(CC(C)C)c4c3CC(C)(C)CC4=O)cc(N3CCC(O)CC3)c2c(=O)[nH]1,cell growth or viability,,MTS,,,,> 50 µM
O=C(NCCOCCNC(=O)c1cc2ccccc2c2ccccc12)c1cc(C(=O)N2CCNCCNCCNCC2)c(O)c(C(=O)N2CCNCCNCCNCC2)c1,cell growth or viability,,MTT,24 h,,,> 1000 µM
CCCc1cc2cc(-n3nc(C)c4ncccc43)cc(N3CCC(O)CC3)c2c(=O)[nH]1,cell growth or viability,,MTS,,,,17.8 µM
NC(=O)c1ccc(-c2ccccc2Cl)c2c3c([nH]c12)CC[C@H](N)C3,cell growth or viability,,,,,,0.0448 µM
CCCCCCCCCC(=O)Oc1c(C)c(OC)c2c(/C=C/c3ccccc3)c(CCCCCCCC)c(=O)oc2c1C,cell growth or viability,,SRB,72 h,,,> 50 µM
CCCN1C(=O)/C(=C/C(=O)OCC)S/C1=N\N=C\c1cccc2cc3ccccc3nc12,cell growth or viability,,MTT,48 h,,,> 50 µM
Cc1nc(Nc2ccc3c(c2)/C(=C/c2cn(C)c4ccccc24)C(=O)N3C)c2ccccc2n1,cell growth or viability,,MTT,,,,8.29 µM
CCCc1cc2cc(-n3cc(C)c4c3CC(C)(C)CC4=O)cc(N3CCC(O)CC3)c2c(=O)[nH]1,cell growth or viability,,MTS,,,,5.77 µM
Oc1ccc(C#Cc2c(O)ccc3c2C(c2ccc(O)cc2)(c2ccc(O)cc2)c2cc(O)ccc2-3)cc1,cell growth or viability,,MTT,48 h,,,19.4 µM
O=[C]=[Mn-2]12(=[C]=O)(=[C]=O)[O]c3cc4c(cc3=[N+]1CCc1ccccc1)[O][Mn-2](=[C]=O)(=[C]=O)(=[C]=O)([N+]=4CCc1ccccc1)[n+]1ccc(cc1)C(=O)Oc1ccccc1OC(=O)c1cc[n+]2cc1,cell growth,,MTT,48 h,,LED light photolysis 1 h,2.29 ± 0.46 µM
O=C(/C=C/c1ccccc1)Nc1cc(-c2ccnc(N3CCC(CO)CC3)c2)ccn1,cell growth or viability,,MTT,72 h,,,0.228 µM
CCCC[N+]1=c2cc3c4cc2[O][Mn-2]1(=[C]=O)(=[C]=O)(=[C]=O)[n+]1ccc(cc1)C(=O)Oc1ccccc1OC(=O)c1cc[n+](cc1)[Mn-2](=[C]=O)(=[C]=O)(=[C]=O)([O]3)[N+]=4CCCC,cell growth,,MTT,48 h,,LED light photolysis 1 h,5.55 ± 0.4 µM
O=Cc1ccc2c(c1C#Cc1ccc(O)cc1)C(c1ccc(O)cc1)(c1ccc(O)cc1)c1cc(O)ccc1-2,cell growth or viability,,MTT,48 h,,,> 50 µM
O=C1CS/C(=N\N=C\c2cccc3cc4ccccc4nc23)N1c1ccccc1,cell growth or viability,,MTT,48 h,,,46.3 µM
CO[C@@H](C[C@H]1C(C)=CC[C@@H]2[C@]3(C)C[C@H](O[C@@H]4O[C@@H](C)[C@H](OC(=O)c5cccc(O)c5)[C@@H](O)[C@H]4O)[C@@H](O)C(C)(C)[C@H]3CC[C@]21C)[C@H](N)C(=O)O,cell growth or viability,,CCK-8,72 h,,,7.6 µM
CC(C)[C@@H]1NC(=O)[C@@H](CCCNC(=N)N)NC(=O)[C@H]([C@@H](C)O)NC(=O)[C@@H](CCCN)NC(=O)[C@H](Cc2ccccc2)NC(=O)[C@@H](Cc2ccc(F)cc2)NC1=O,cell growth or viability,,ATP luminescence,,,,> 100 µM
O=c1c2ccccc2[se]n1CCCCCCn1[se]c2ccccc2c1=O,cell growth or viability,,,5 days,,,1.39 µM
CCOC(=O)/C=C1\S/C(=N\N=C\c2cccc3cc4ccccc4nc23)N(c2ccc(OC)cc2)C1=O,cell growth or viability,,MTT,48 h,,,> 50 µM
O=C1C(Cl)=C(Cl)C(=O)c2c1cccc2[N+](=O)[O-],cell growth or viability,,MTT,,,,122 µM
CCCc1cc2cc(-n3nc(CCC)c4c3CC(C)(C)CC4=O)cc(N3CCC(O)CC3)c2c(=O)[nH]1,cell growth or viability,,MTS,,,,8.28 µM
O=C(NCCOCCOCCOCCNC(=O)c1cc2ccccc2c2ccccc12)c1cc(C(=O)N2CCNCCNCCNCC2)c(O)c(C(=O)N2CCNCCNCCNCC2)c1,cell growth or viability,,MTT,24 h,,,> 1000 µM
CCn1nc(Cl)c2c1-c1cnc(N)c(c1)O[C@H](C)c1cc(F)ccc1-c1nn(C)cc1C2,cell growth or viability,,,,,,> 9.57 µM

# Repeated from above:
SMILES,effect on,mode,method,time,temperature,setting,IC50
COC(=O)[C@@H](NC(=O)[C@@H](NC(=O)OC(C)(C)C)C(C)C)C(C)C,cell growth or viability,,SRB,,,,0.67 µM and 1.49 µM and 0.76 µM
CCOC(=O)/C=C1\S/C(=N\N=C\c2cccc3cc4ccccc4nc23)N(C)C1=O,cell growth or viability,,MTT,48 h,,,> 50 µM
CCCc1cc2cc(-n3nc(C(F)F)c4c3CC(C)(C)CC4=O)cc(N3CCC(O)CC3)c2c(=O)[nH]1,cell growth or viability,,MTS,,,,6.07 µM
CC(C)=CC1OC(C)(C)C2C=C3C(=O)C(Cl)=CC(O)C3C3C(O)C4OC4C(=O)C132 (stereo not drawn),cell growth or viability,,MTS,,,,3.66 µM
